Results of several laboratories.
Numbered parts are unrelated; each lists some results of a single study. Substitutions count along the parent as printed.

Set 1
Target: ABI1, truncated, D143A, DHFR fusion (Arabidopsis thaliana)
Technique: DHFR PCA, deep sequencing
Sample: yeast
Notes: methotrexate growth selection, single substitutions
Added: (+)-ABA 0 µM
Reference: wild-type fitted maximum
Reading: higher = stronger binding
Parent: PYL1, truncated, DHFR fusion (Arabidopsis thaliana); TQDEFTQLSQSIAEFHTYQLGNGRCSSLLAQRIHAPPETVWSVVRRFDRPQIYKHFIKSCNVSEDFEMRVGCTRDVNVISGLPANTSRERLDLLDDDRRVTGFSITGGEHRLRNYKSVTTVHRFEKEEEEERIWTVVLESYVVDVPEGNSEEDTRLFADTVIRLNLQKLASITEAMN; partner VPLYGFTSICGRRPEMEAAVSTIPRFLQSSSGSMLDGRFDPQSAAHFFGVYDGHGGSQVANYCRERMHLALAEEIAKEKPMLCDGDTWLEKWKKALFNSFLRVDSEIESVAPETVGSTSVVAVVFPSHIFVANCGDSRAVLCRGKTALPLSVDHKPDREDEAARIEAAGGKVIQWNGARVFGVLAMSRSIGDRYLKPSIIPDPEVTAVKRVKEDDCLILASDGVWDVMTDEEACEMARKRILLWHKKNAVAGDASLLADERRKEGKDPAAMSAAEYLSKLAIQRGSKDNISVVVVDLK
Under “relative binding score”, `R111Y` is recorded as 1.49%.
For `E4G`, “relative binding score” read 2.1%.
`T73R` — result for “relative binding score”: 1.54%.
`P37Q`: “relative binding score” 3.37%.
`Q2E`: “relative binding score” 27.4%.

Set 2
Target: CCNB2, cyclin fold, Cln2 fusion (human)
Technique: yeast growth competition, sequencing
Sample: yeast
Notes: weak parent motif
Reference: not given
Reading: higher = stronger binding
Parent: MASTL docking peptide (human); PMIAKNLMCELDE; partner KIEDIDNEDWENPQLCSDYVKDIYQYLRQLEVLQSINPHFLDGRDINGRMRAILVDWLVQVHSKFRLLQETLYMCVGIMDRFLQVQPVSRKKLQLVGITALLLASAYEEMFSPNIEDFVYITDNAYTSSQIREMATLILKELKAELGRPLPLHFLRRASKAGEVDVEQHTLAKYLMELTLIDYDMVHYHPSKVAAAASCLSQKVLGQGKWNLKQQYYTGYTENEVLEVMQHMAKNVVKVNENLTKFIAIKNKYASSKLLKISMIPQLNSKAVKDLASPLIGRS
For `C9F`, “normalised enrichment score” read 1.61.
`L7D`: “normalised enrichment score” -0.093.
`C9I` — result for “normalised enrichment score”: 0.18.
`L11I`: “normalised enrichment score” 1.01.
Under “normalised enrichment score”, `D12Q` is recorded as 0.258.
For `M8R`, “normalised enrichment score” read 0.0859.
Under “normalised enrichment score”, `N6H` is recorded as 0.26.
For `K5A`, “normalised enrichment score” read -0.0982.
`L7T` — result for “normalised enrichment score”: -0.357.

Set 3
Target: Ras GTPase-activating protein-binding protein 1, full length (G3BP1, Homo sapiens, UniProt Q13283)
Chain of UniProt Q13283 (whole entry, looked up): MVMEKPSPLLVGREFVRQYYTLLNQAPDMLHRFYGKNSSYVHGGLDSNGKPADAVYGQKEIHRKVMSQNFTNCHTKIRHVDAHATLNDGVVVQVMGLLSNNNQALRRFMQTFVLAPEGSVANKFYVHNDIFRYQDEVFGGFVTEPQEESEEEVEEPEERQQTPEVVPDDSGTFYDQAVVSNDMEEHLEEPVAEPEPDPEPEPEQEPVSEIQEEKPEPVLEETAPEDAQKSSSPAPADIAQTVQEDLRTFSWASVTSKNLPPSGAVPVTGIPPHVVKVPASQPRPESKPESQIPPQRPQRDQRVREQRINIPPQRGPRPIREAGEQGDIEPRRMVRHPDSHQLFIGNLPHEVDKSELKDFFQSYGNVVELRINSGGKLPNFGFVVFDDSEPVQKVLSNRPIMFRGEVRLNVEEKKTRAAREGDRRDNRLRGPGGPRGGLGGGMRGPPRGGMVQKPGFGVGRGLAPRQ
Technique: RNA Bind-n-Seq
Molecule type: RNA
Sample: in vitro
Tested at: 200 nM
Notes: whole 134-nt RNA, ends assumed
Added: 150 mM KCl
Reference: input library
Reading: higher = stronger binding
With `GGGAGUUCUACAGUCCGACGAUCCUCAAGUCCUGUGCUACACAUCGUAUGUACCGAAUCGGAGGAGGAAAAAAAGGAAAGUAUUAUGUUACGCCGUUCGGAUCUGCACUUCCAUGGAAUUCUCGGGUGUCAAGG` the log2 enrichment was -0.365.
The log2 enrichment of `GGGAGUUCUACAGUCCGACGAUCCAAGUCCUGUGCUACACAUCGUAUGUACCGAAUCGGGGUUUGGGUUUGGUUUGGGAAAGUAUUAUGUUACGCCGUUCGGAUCUGCACUUCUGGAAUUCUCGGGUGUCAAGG` is reported as -0.0861.
For `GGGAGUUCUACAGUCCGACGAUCUGUUGGGCUUCGAUCCCAGGUGGAUGAUGAUGCCUUCCUACAUGGACCCACGUAUCACGCCCACUCGGACCCCGGUGGACUUCUACCCCUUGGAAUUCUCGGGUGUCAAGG`, the log2 enrichment was 0.656.
The log2 enrichment of `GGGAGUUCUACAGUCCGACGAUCUAACUUUAGAGGAGGAUCUGAUGGAUAUGGCAGUGGACGUGGAUUUGGGGAUGGCUAUAAUGGGUAUGGAGGAGGACCUGGAGUUGGCAAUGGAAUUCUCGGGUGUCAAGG` is reported as 0.205.
The log2 enrichment of `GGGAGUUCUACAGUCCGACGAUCUGGGAGGUGGAUUUUGUUUAUUUUUUUAGCGCAUUUCCAGGGGUGGGAAUUUUUUUUUAAUAUGUGUCAUGAAUAAAGUUGUUUUUGAAAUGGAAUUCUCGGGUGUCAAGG` is reported as 0.33.
The log2 enrichment of `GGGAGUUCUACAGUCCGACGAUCGCAGGAAGUAAAAACAAAUGGAAAUGCUUCGGAUAGUGGCAGGGGUGGGGGUUGCUAAGGAAAGGGUGGGAUGGGAAUGGGUAAAGAGUUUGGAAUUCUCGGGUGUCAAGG` is reported as 0.81.

Single results of other studies
With `PhoQ, residues 284 288 289 292 302 303 GASLAW` the fold induction was 14.5 (PhoP, residues 12 14 15 18 19 SQCLL (Escherichia coli, UniProt P23836); Sort-seq, item: YFP reporter; E. coli; PhoQ-PhoP variant library, added: 10 µM Mg2+; reference: high Mg2+ state, higher = stronger signaling).

Repeated from above (set 2):
`L11I`: “normalised enrichment score” 1.01.
Under “normalised enrichment score”, `D12Q` is recorded as 0.258.
